Assay results of several laboratories.
Parts stem from different laboratories: compare values within a part only. Changes are numbered by the printed parent chain.

Set 1
Target: CEBPD, bZIP domain (human)
Method: DHFR protein complementation
Sample: yeast
Setting: single substitutions, most at no-binding floor
Baseline: wild-type JUN-FOS pair
Direction: higher = stronger binding
Parent: JUN, bZIP domain (human); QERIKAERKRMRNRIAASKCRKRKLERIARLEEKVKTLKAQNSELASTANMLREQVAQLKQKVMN; partner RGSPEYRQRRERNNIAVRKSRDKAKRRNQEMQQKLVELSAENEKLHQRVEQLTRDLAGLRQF
Substitution | binding fitness [natural log]
V35H | -1.47
A57H | -1.22
E32N | -1.33
K36I | -1.33
L31R | -1.45
S43W | -1.5
R30P | -1.4
N42I | -1.41
S47L | -1.36
L52E | -1.53
S43H | -1.33
V35K | -1.45
V56T | -1.47

Set 2
Target: CCND3, cyclin fold, Cln2 fusion (human)
Method: yeast growth competition, sequencing
Sample: yeast
Setting: weak parent motif
Baseline: not given
Direction: higher = stronger binding
Parent: ORC1 docking peptide (human); PRARKRLELGNLG; partner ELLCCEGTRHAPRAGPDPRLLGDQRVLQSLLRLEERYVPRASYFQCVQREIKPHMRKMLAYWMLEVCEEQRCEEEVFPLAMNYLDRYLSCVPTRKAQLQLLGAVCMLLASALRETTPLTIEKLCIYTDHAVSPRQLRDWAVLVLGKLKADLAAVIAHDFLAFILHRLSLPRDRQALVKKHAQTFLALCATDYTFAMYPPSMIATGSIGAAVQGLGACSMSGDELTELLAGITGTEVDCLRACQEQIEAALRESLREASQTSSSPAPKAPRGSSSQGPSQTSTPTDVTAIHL
Substitution | normalised enrichment score
PRARRRLELGNLG [K5R] | 0.319
PRARKRLEAGNLG [L9A] | 0.144
PTARKRLELGNLG [R2T] | 0.206
PRARKRLELMNLG [G10M] | 0.148
PRARKRLELGNVG [L12V] | 0.108
PGARKRLELGNLG [R2G] | 0.0879
PRARKRLELRNLG [G10R] | 0.11
PRACKRLELGNLG [R4C] | 0.0377
PRARKRLELYNLG [G10Y] | 0.336
PRARKRLSLGNLG [E8S] | 0.128
PRALKRLELGNLG [R4L] | 0.141
PRARKRHELGNLG [L7H] | 0.0882
PRAQKRLELGNLG [R4Q] | 0.103
PRARKRLELGNAG [L12A] | 0.151
PRARKRLELGNLK [G13K] | 0.204
PRTRKRLELGNLG [A3T] | 0.162
PRARKRLELGQLG [N11Q] | 0.0236
PRAEKRLELGNLG [R4E] | 0.115
PRWRKRLELGNLG [A3W] | 0.115
PRERKRLELGNLG [A3E] | 0.198
PEARKRLELGNLG [R2E] | 0.188
PRARKRLELCNLG [G10C] | 0.135
RRARKRLELGNLG [P1R] | 0.158
PRARKRLELGYLG [N11Y] | 0.256
PRARKRDELGNLG [L7D] | 0.148

Set 3
Target: Centromere-binding protein 1, full length, N-terminal tag (CBF1, Saccharomyces cerevisiae, UniProt P17106, residues 1-351)
Chain of UniProt P17106 (whole entry, looked up): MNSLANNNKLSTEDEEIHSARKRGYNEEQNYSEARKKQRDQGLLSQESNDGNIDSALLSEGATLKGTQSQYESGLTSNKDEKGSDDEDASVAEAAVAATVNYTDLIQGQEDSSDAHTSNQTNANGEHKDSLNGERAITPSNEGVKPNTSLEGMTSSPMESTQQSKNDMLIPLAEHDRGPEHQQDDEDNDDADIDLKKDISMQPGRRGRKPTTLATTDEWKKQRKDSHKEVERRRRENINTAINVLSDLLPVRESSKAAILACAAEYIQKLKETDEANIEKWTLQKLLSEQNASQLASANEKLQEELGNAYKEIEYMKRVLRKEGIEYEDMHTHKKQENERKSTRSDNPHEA
Method: protein-binding microarray
Molecule type: double-stranded DNA, one strand shown
Sample: in vitro
Tested at: 0.8 µM
Setting: whole 60-bp probe, no competitor
Direction: higher = stronger binding
Shared flanks, not repeated: … GTCTTGATTCGCTTGACGCTGCTG
Sequence | fluorescence intensity [a.u.]
TGTACGAAGCTATTCCTCGTGTCTATAGTAGTTAGG | 564
GAATCATTGTTCGGTCACGAATGTGTCATTGACTAG | 628
CTACCTCTTTAAGCTGACATCACGTCTATACCCTTC | 605
GAACCATCGAACTATCTGGTGGCAAAATTGGCCTAG | 517
GAATTTTCTTCCGTGGGCCTGACGGAACATTCCTAG | 484
GAAGCGTCTACTCATCACCTATAGTCTCAAGATTAG | 495
GAATGGCGTATGGGCGACGTGCGTCCATGCAAATAG | 523
GAAAACTCGTCAAGTCACGTTTGGTGGACGGCCTAG | 1260
CTAGCAGCACCGTTTCACATGTCCGTCTCTTTTTTC | 560
CTACCTCCCACCAGAAAGTCACCTGCTCTCTTATTC | 5020
GAACATCAATAAGTCATCACCATTAGAGAGTTGTAG | 572
GAAGTTAATCGACCCCACGTCCAGGGTTTTTCCTAG | 467
GAAGAAATGAGAAATCTCAGCTGAGTTATTTAATAG | 497
CTAATAATGCTACAGGAGACCATAAGTGATAACTTC | 513
CTATCAGAATATGAAAACGTGTCGAACGGGGATTTC | 599
GAATATTTGTAAGGAAACGTGCTTTCCTCTTCATAG | 649
GAACAAAATCGAAGTGCCCACGTGCTGCTCATTTAG | 6250
GAACGATAAGCCTGTGACGTACTTATGCGGGAATAG | 584
GAAGCTTCGGAAAGTTGCGTGATTGCATTAAAGTAG | 645

Set 4
Target: Histone acetyltransferase KAT6A, winged helix 2, GST fusion (KAT6A, Homo sapiens, UniProt Q92794, residues 85-181)
Method: protein binding microarray
Molecule type: double-stranded DNA, one strand shown
Sample: in vitro
Tested at: not given
Setting: 8-mer, flanks averaged, mean of 2 arrays, mostly near background
Baseline: not given
Direction: higher = stronger binding
Construct (chain): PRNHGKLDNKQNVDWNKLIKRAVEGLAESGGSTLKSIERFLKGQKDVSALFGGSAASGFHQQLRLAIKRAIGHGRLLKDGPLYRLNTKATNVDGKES
Sequence | E-score
AGAAAACA | 0.0464
CCAATTGA | -0.0281
GGGGCGAA | 0.0493
GCGGACCA | 0.138
GAAAGCCC | 0.0262
GAACGTGA | -0.0666
TGGCATAA | 0.134
AGCTTGCC | 0.0604
AGTAAGGG | 0.0253
AGATAAGG | 0.0347
CGCCAGTA | -0.0165
CGACGGGC | 0.21
TATGTCAA | 0.00139
CAGAAGAG | 0.0443
GTTCATAA | -0.104
